Published values pooled from the literature.
Each numbered part is a random draw from the data of one study; scales do not carry over between parts. Positions count from the first letter of the parent shown.

Series 1
Target: CCND2, cyclin fold, Cln2 fusion (human)
Method: yeast growth competition, sequencing
Matrix: yeast
Notes: weak parent motif
Reference: not given
Reading: higher = stronger binding
Starting sequence: PKN2 docking peptide (human); DSTVTKLDFDLEP
| Substitution | normalised enrichment score |
| --- | --- |
| V4A | 0.0442 |
| L7A | -0.0592 |
| T5A | 0.583 |
| D10A | 0.13 |
| F9A | -0.00435 |
| T3A | 0.133 |

Series 2
Target: RING finger protein unkempt homolog, zinc fingers 1-6, GST-SBP tag (UNK, Homo sapiens, UniProt Q9C0B0, residues 30-357)
Sequence of UniProt Q9C0B0 (30-357, looked up): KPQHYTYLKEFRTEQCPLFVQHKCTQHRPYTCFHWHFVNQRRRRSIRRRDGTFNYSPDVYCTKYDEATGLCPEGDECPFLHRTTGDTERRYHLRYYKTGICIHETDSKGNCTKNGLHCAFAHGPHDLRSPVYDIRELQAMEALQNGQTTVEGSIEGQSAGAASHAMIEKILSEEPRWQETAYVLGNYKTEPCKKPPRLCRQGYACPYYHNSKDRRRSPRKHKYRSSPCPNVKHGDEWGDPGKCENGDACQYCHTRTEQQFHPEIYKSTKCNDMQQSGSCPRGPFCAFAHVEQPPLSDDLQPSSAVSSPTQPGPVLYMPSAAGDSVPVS
Method: RNA Bind-n-Seq
Form: RNA
Matrix: in vitro
Tested at: not given
Notes: RNA with constant flanks, ends assumed
Reference: input RNA pool
Reading: higher = stronger binding
Shared flanks, not repeated: GGGAGUUCUACAGUCCGACGAUC … CAACAGAGGAUUGAGCAUCA
| Strand | bound/input enrichment [ratio] |
| --- | --- |
| UGGUUCUCCUCCAACUGAGAAAGCUUACAGUACAAUUUAAAGUGGGUCUCGCCUGCACUUACCCGUGUCUGACGAAACAGUCUUACAUCUGCCUAAGUAAUAGAAGAGCCCUGCAGAAUA | 0.0996 |
| CUUUGUGUUCAUGGUGGACUUUCACCAGAAAUACACACACUGGAUGAUAUUAGGAGAUCCGACCGAUUUAAAGAGCCACCUGCAUUUGGACCAAUGUGUGACUUGCUAUGGUCUGAUCCU | 0.149 |
| GCGGCCUCAUUGCUACGAUUUCAGAGUACCCUGGUAAUAGCUGAGCAUGCAAAUGAUUCCCCCGCACCCAUUACUUUAAAUACCAUUACUGCAGCCACACGCCUUGGAGGUGAAGUGUCC | 0.479 |
| CAAAAAAUGGUGCCUCCGGAUGCUCCUUCUUCUGUGAGCACAGGCUCCCCUCAGCCCCCCCGCUUCACCUAUGCUCAGCAGAAGGAGAAGCCCCUAGUUCAAGAGAAGCAGCACCCACAG | 0.647 |
| UUUGACAAGGAUGGGAAUGGUUACAUCAGUGCGGCAGAACUGCGCCACGUCAUGACAAACUCCGGAGAAAAGCUAACAGAUGAAGAAGUAGAUGAAAUGAUCAGAGAAGCAGAUAUUGAU | 0.581 |
| CUGUCUGUCCACACCAUGGUCUCCUCAGUCCCCUCCACGCCAGCCCCUCUUCCCCACACCCCGCCGGUGUGCUACACCUCCCUUUGCCAGUCAUCCCGCCAUGGAUGGGGAGCCUACUUG | 0.307 |
| AAUGCUUGUUGGGUGCAUAAACAUUUCACAGAGGAUAUCCAGACACGUCAGUAUAGGUCCACCGAGGUUUUAAUAGGAGCAGGCUACAGCACACCUGCAGACAUUUGGAGUACAGCUUGC | 0.659 |
| GACGACAAAAGAGUUGUACCUAAAGGAAAAGGAGAACAGAUUGCAAGGGAGCAUGGUAUCCGGUUUUUUGAGACUAGUGCAAAAGCAAAUAUAAACAUCGAAAAGGCGUUCCUCACGUUA | 0.685 |
| CCCCCAACUGUUCACCUUUAGAAAUGUCCAGACAAGGAGCCUGGUCUGCUUAUAUCAUGGUCCGGGAUGAUAGUCCGGACUAGCCAGGGUCAAAGUUGCUUUUAAUGUAGAGCCCAACCC | 1.84 |
| GAAUUUGCCUAUACUUCUGUACUAAGUUUUGAUUUCUGUAGCAUGGCUGAUGUAGCCAUCUCCGCUCGUCAUCUUUUCAUGUCAGAAGUCUUAGAGAUUUGUGAAAGUGUACAUAAGCUA | 0.22 |
| GAUGUCACUCAAGAGCAGCUGGGUGGUGCCAAGACCCACACCACUGUGUCAGGUGUGGCCCACCGAGCUUUCGACAAUGAUGUUGAUGCUCUGUGUAACCUGCGUGAAUUCUUCAAUUUC | 0.0802 |

Series 3
Target: OGT, full length, His-tagged (human)
Method: phage display, sequencing
Matrix: in vitro
Tested at: 1 µg OGT
Notes: single substitutions, 15-mer displayed peptide, unchanged parent 5.27
Reference: input library
Reading: higher = stronger binding
Starting sequence: peptide; GDFPVMFMPKYSIIY
| Substitution | fold enrichment |
| --- | --- |
| GDFPVMFMPKYSIIW [Y15W] | 4.03 fold |
| GDFPVMFMPKYKIIY [S12K] | 7.15 fold |
| GDFPVMFQPKYSIIY [M8Q] | 0.747 fold |
| GDFTVMFMPKYSIIY [P4T] | 3.05 fold |
| GDFPVMHMPKYSIIY [F7H] | 1.02 fold |
| GDFPVMFMQKYSIIY [P9Q] | 3.81 fold |
| EDFPVMFMPKYSIIY [G1E] | 6.62 fold |
| GDFPVMFMPKYSIIR [Y15R] | 0.993 fold |
| RDFPVMFMPKYSIIY [G1R] | 4.18 fold |
| GDFQVMFMPKYSIIY [P4Q] | 7.14 fold |
| GDFPVLFMPKYSIIY [M6L] | 16.6 fold |
| GHFPVMFMPKYSIIY [D2H] | 6.65 fold |
| GDFPVMFMKKYSIIY [P9K] | 1.79 fold |
| GDAPVMFMPKYSIIY [F3A] | 4.96 fold |
| GDFPVMFMPKYSAIY [I13A] | 0.636 fold |
| GDFPVMFMPKYSIIE [Y15E] | 0.662 fold |

Series 4
Partner: H2BC9 (Homo sapiens, UniProt Q93079)
Method: cross-linking MS
Notes: hits only
| Substance | interaction screen |
| --- | --- |
| H2AC20 (Homo sapiens, UniProt Q16777) | cross-linked |
| TOP2A (Homo sapiens, UniProt P11388) | cross-linked |
| H2AC7 (Homo sapiens, UniProt P20671) | cross-linked |
| Histone H2B type 1-C/E/F/G/I (Homo sapiens, UniProt P62807) | cross-linked |

Series 5
Target: RNA binding protein fox-1 homolog 2, RRM domain, GST-SBP tag (RBFOX2, Homo sapiens, UniProt O43251-10, residues 100-194)
Method: RNA Bind-n-Seq
Form: RNA
Matrix: in vitro
Tested at: 365 nM
Notes: natural RNA segment, single round, ends assumed
Reference: no-protein control
Reading: higher = stronger binding
Shared flanks, not repeated: GGGAGUUCUACAGUCCGACGAUC … UGGAAUUCUCGGGUGCCAA
Construct (chain): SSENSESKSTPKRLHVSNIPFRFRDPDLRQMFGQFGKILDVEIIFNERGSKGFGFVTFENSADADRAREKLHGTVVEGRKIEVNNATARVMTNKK
| Strand | RBNS enrichment (R) |
| --- | --- |
| AAUAUUCUGUAACUCAGCCAGGCAAGGUAGCUCAUGCCUGUGAUCCCAGCAUUUGGGAAACAGAGGCAAGAGGAUUGCUGCAAGUUUAAGGCCAGCCUGUCUACAUAGGG | 0.81 |
| AGAAAUGUGGGGAAGAAAGCAAUUUGAGCAGUAUGUAGCCUACUCACAUGGGCUCUUUUUCAGGUUUGAUGUAAGCAUAGGCUUGCAUAUUCCCAAGGUACAUACUUUGA | 0.485 |
| CCAUAUUCUAAAUUUACAUAGUUUAUUUUCAGCCUUGAGUUGGAUGUUUUUUAGAAAUAUGCCCAGAGUAAGAAGCUGUGUUGGAGCCUAAGUCCUGCAAGCUGGGUCCU | 0.418 |
| AAAAACCUUUCAGGAAGUCAAUGAUUUCUGUGAUUGAUAUAAUUCUAAGGUGUCUGAGAGCAGGUACAGAAUAGGAACUUCAGAGGCUUUGUUUAAACGCAAAGCUUUGU | 0.26 |
| GAUAUUCAUCUCUCCAUUAGCAAUUGAAUCCAGGCAUAACCGGGCUCAGUUACACAGCUUGUCUGUGACUGGGAAGCCCAUUUUGUGUCAUUUCUGCACACCUGUCCGCU | 0.569 |
| GGCCACGCGUGCAGGGUGUGUGUCCACGAGCGACGAUCGUGGUGGCCCCAGCGGCCUGGGCGUUGGCUGAGCCGACGCUGGGGCUUCCAGAAGGCCCGGGGGUCUCCGAG | 0.886 |
| UAAGAGUCACCAAACACGUGGAUAUUUUUGGUCUGAUCCUACAGUAGCCGGUUAUCUAGACCAGUAAGUGGAGUUUUGGACAUGCUGCUGCUGUCAACUCACUGGCUGAA | 0.447 |
| UUUUUUGUUUUUCAAGAUAGGGUUUCUCUGUGUAGCCCUGGCUGUUCUGGAACUUGCUGUAUAGUCCAGGCUGGCCUCAAACUCAGAGAUCCACCUGCCUCUGCCCCCUG | 0.562 |
| AAAGCACACCAUGGUGGGAGAGGUGUGGCAGGCAUUGCUCGAGCAUCCUGGCUCUCCCAUGCCUCCCGCAGCCGCGGCAUUUCAUUCUACAUGGCGCUGAGCCCCAACUC | 0.963 |
| AGCCUUUGUGGUUGAAAUGAAUAACGAUUCGGUUUUCUGAACUGUACACAUCCUUGUUCAGUUUUCUUUUGAUGACUAAGGCUCAGUACCAGCGAGCUGUAGGCCAUGUC | 0.326 |
| UGCAGGCUCCUACUGCCCAUGCUGUGGCUGGAUUAAACAGCACGGGGUCUGAUAGAAAACGGGACUGCUCUGCACCAACAGCCUGUCACAGACAGGACAGCUGGACCACA | 0.425 |
| CUUGACCCCAUUUAUGUGUAGGAGCACUACACCAUUGGUUUCCAAUACUGCACACAUAAGAUACAUACUUGUGUGCAGAAAGUAUCUUCCUCCAGGCUUGUAAUACCCUU | 0.361 |

Single results of other studies
| Substance | target | assay | system | setting | how to read | quantity | result |
| --- | --- | --- | --- | --- | --- | --- | --- |
| PhoQ, residues 284 288 289 292 302 303 ALSMDL | PhoP, residues 12 14 15 18 19 GQALL (Escherichia coli, UniProt P23836) | Sort-seq, refers to: YFP reporter | E. coli | PhoQ-PhoP variant library, together with: 10 µM Mg2+ | reference: high Mg2+ state, higher = stronger signaling | fold induction | 10.1 |

Repeated from above (series 1):
| Substitution | normalised enrichment score |
| --- | --- |
| V4A | 0.0442 |
| L7A | -0.0592 |
| T5A | 0.583 |
| D10A | 0.13 |
| F9A | -0.00435 |
| T3A | 0.133 |
